Assay results collected from several papers.
A part holds a random share of what one study measured.
UniProt P49840, sequence (whole entry, looked up): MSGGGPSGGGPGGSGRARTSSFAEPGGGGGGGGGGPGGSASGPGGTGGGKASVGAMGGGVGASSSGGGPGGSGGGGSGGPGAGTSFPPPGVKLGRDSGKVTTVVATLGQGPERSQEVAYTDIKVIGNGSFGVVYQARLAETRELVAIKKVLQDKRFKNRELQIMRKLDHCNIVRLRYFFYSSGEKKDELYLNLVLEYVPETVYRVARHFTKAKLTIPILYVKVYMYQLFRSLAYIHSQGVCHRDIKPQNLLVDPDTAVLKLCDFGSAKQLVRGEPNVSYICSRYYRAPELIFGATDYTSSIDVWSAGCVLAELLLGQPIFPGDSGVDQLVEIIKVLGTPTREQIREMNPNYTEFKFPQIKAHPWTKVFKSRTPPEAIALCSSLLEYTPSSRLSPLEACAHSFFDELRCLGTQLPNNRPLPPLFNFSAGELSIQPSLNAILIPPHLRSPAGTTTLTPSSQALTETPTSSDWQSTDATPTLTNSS
UniProt Q13882, sequence (whole entry, looked up): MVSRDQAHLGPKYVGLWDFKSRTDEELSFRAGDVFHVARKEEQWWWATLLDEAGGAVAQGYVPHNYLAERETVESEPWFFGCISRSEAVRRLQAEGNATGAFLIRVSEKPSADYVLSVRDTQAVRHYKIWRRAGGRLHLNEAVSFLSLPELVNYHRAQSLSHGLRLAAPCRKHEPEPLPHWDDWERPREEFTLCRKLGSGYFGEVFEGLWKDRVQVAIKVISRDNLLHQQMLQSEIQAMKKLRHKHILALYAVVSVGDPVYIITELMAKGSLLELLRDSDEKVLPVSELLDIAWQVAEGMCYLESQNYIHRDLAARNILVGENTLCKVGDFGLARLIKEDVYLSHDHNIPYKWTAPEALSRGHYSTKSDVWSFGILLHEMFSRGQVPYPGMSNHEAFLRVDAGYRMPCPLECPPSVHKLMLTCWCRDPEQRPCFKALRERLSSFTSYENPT
UniProt P68400, sequence (whole entry, looked up): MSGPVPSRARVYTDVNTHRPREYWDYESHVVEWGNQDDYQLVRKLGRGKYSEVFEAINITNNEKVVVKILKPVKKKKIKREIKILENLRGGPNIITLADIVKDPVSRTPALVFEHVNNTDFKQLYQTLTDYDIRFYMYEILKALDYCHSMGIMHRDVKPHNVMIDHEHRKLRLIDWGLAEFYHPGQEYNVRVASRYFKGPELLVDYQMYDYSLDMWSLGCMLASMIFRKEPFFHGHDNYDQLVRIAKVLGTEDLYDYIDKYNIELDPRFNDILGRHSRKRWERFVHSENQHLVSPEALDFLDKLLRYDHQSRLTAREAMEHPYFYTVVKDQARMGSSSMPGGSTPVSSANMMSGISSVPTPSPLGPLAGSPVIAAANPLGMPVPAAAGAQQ
UniProt P20794, sequence (whole entry, looked up): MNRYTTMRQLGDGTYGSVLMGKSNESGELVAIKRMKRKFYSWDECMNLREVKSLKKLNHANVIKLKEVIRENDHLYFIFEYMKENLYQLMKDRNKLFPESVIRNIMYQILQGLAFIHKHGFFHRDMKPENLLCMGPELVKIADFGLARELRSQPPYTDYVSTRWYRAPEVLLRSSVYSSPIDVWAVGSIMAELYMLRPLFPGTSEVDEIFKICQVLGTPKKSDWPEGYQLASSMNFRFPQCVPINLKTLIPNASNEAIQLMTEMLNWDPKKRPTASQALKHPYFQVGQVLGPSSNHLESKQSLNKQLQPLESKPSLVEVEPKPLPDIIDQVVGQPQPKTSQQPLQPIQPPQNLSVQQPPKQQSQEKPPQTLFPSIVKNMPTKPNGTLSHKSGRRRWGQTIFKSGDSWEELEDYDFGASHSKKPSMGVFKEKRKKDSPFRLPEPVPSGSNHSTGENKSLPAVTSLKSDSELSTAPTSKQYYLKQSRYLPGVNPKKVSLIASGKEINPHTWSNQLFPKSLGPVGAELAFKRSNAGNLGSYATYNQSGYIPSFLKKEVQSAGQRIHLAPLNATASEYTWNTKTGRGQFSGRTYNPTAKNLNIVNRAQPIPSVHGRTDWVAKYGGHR
UniProt P07332, sequence (whole entry, looked up): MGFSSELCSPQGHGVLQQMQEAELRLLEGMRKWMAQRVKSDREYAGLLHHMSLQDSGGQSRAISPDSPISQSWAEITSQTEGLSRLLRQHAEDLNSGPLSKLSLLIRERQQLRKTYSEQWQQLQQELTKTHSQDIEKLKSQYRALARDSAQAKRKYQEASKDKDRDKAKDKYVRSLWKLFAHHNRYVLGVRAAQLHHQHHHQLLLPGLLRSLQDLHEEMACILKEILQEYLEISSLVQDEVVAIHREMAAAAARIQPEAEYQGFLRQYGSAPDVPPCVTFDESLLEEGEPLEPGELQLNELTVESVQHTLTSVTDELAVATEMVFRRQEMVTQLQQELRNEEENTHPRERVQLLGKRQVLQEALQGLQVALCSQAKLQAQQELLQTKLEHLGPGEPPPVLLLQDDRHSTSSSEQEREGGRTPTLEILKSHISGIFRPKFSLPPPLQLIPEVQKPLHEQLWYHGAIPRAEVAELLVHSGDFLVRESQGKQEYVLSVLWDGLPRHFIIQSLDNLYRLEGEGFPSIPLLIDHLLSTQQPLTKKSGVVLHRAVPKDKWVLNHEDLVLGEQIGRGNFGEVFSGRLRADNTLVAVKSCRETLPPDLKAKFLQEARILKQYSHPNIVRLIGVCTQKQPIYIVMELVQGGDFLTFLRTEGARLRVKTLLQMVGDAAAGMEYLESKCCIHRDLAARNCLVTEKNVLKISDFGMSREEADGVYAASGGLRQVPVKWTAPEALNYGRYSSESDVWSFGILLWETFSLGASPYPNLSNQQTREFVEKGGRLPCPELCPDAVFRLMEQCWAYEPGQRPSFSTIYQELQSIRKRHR
UniProt Q99755, sequence (whole entry, looked up): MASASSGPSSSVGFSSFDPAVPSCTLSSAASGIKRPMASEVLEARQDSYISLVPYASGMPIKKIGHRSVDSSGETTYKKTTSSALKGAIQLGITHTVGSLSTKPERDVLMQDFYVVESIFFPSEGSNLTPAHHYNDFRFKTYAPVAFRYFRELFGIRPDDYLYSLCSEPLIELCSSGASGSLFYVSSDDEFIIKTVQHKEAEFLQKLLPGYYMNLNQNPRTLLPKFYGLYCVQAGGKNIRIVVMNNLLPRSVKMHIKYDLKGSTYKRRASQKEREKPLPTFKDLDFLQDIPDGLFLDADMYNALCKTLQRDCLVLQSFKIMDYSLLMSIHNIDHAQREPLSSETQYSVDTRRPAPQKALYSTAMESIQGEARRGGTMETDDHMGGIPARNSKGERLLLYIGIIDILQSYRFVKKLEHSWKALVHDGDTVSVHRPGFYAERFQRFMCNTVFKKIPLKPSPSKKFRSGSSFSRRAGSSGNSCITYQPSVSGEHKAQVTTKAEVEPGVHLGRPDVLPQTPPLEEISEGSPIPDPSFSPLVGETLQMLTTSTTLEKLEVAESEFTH
UniProt Q05397, sequence (whole entry, looked up): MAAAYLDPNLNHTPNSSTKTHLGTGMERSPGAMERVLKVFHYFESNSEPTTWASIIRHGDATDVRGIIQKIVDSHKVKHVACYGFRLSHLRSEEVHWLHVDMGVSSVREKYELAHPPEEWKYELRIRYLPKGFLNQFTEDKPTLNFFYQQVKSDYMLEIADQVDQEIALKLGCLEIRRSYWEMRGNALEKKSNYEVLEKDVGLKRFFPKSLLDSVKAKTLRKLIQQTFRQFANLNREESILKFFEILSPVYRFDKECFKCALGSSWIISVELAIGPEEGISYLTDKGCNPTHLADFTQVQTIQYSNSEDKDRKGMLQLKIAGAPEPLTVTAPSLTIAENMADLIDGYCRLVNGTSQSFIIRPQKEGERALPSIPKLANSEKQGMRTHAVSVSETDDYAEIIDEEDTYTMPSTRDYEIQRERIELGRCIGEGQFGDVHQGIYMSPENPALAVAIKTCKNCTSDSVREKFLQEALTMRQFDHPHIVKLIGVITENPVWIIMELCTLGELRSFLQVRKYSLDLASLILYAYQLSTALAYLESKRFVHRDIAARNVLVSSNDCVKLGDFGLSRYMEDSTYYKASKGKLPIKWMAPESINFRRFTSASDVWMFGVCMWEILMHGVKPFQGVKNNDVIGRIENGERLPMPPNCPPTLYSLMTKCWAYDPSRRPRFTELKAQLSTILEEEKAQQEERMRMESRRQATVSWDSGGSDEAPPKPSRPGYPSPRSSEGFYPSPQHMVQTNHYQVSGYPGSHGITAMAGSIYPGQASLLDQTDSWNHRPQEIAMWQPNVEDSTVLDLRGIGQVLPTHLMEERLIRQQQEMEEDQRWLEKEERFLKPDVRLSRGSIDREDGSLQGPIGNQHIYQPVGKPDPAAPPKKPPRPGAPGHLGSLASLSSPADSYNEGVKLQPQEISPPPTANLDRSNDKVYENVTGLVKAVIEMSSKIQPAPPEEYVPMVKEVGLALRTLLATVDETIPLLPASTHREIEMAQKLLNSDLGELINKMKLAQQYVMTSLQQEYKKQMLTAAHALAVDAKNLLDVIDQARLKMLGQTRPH
UniProt O43353, sequence (whole entry, looked up): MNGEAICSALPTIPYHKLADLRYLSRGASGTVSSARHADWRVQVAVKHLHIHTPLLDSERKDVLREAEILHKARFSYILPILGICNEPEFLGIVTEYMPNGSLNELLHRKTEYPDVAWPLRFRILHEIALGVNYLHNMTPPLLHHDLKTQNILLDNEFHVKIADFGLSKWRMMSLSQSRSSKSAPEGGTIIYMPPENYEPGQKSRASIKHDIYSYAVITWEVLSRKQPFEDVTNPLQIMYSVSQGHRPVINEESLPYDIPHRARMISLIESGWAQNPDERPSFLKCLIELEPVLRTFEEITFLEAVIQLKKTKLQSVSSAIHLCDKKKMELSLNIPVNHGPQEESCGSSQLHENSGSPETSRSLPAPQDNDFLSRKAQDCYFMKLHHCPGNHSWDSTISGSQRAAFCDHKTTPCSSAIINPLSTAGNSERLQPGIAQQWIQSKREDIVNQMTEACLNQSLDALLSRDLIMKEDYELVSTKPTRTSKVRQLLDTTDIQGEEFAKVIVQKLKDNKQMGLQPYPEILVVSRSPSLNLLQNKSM

Series 1
Compound: Cc1noc([C@H]2C[C@@H](c3ccc(C(F)(F)F)cc3)CN(C(=O)N3CCS(=O)(=O)C3)C2)n1
Method: competition with immobilised ligand
Concentration: 1 µM
Endpoint: remaining binding
SGK1 (Homo sapiens, UniProt O00141); cell-free assay: 100%
EPHB6 (Homo sapiens, UniProt O15197); cell-free assay: 73%
CDK7 (Homo sapiens, UniProt P50613); cell-free assay: 89%
GSK3A (Homo sapiens, UniProt P49840); cell-free assay: 79%
CHEK1 (Homo sapiens, UniProt O14757); cell-free assay: 100%
PIK3CA (Homo sapiens, UniProt P42336, E545A); cell-free assay: 64%
FES (Homo sapiens, UniProt P07332); cell-free assay: 100%
RIPK2 (Homo sapiens, UniProt O43353); cell-free assay: 100%
MAPK3 (Homo sapiens, UniProt P27361); cell-free assay: 100%
PIP5K1A (Homo sapiens, UniProt Q99755); cell-free assay: 88%
PTK6 (Homo sapiens, UniProt Q13882); cell-free assay: 100%
STK35 (Homo sapiens, UniProt Q8TDR2); cell-free assay: 99%
MAK (Homo sapiens, UniProt P20794); binding: 100%
CSNK2A1 (Homo sapiens, UniProt P68400); cell-free assay: 86%
PTK2 (Homo sapiens, UniProt Q05397); cell-free assay: 100%
EPHB3 (Homo sapiens, UniProt P54753); cell-free assay: 100%

Series 2
Species: mouse
Sample: microsomes or S9
Concentration: 2 µM
Time: 0.5 h
Endpoint: remaining compound
COCCOc1cc(=O)n2c(c1C(=O)Nc1cccc(OC)c1)CCOCC2: 36.4%
CC1(C)CC(NC(=O)CCCNc2nc(Cl)nc3[nH]cnc23)CC(C)(C)N1: 92.2%
Cc1c(C(=O)NCC(C)c2ccccc2)oc2ccc3c(c12)C=CC1(CCCC1)O3 (centres unmarked): 58.2%
CC(C)n1ncc2c1NC(=O)CC21C(=O)Nc2ccccc21 (centres unmarked): 21.5%
COCCCNC(=O)N1Cc2c(sc3c2CCCC3)-n2cccc2C1c1cc(F)cc(F)c1 (centres unmarked): 1.55%

Series 3
Target: Glycogen synthase kinase-3 alpha (GSK3A, Homo sapiens, UniProt P49840)
Effect on: enzyme activity
Action: inhibitor
Concentration: 0.5 µM
Reference: control
Endpoint: remaining activity
O=C(c1ccccc1)c1ccc(N2CCOCC2)cc1O: 102%
O=Nc1c(-c2c(O)[nH]c3ccccc23)[nH]c2ccccc12: 16.5%
NC(=O)c1cccc(-c2cc(Nc3ccc(OC(F)(F)F)cc3)ncn2)c1: 93.9%
Nc1nc(Nc2ccc(S(N)(=O)=O)cc2)nn1C(=S)Nc1c(F)cccc1F: 6.3%
N#CC(c1ccnc(NCCc2cccnc2)n1)c1nc2ccccc2s1 (centres unmarked): 2.42%
O=C(O)/C=C/c1cc(Br)c(Br)c(Br)c1Br: 91.5%
Clc1ccc(Nc2nnc(Cc3ccncc3)c3ccccc23)cc1: 103%
c1cc(-c2cnn3cc(-c4ccc(OCCN5CCCCC5)cc4)cnc23)ccn1: 80.7%
CCCCc1c(-c2ccc(O)cc2)[nH]c2nccnc12: 57.7%
CCN(CC)CCCCN1c2ccccc2Oc2ccc(Cl)cc21: 108%
COc1cc2c(N3CCN(C(=O)Nc4ccc(OC(C)C)cc4)CC3)ncnc2cc1OCCCN1CCCCC1: 105%

Series 4
Cell line: HaCaT
Concentration: 100 µM
Time: 36 h
Endpoint: viability
COc1ccc(Cl)cc1C(=O)NCCc1ccc(S(=O)(=O)NC(=O)NC2CCCCC2)cc1: 88.6%
Cc1onc(-c2ccccc2)c1-c1ccc(S(N)(=O)=O)cc1: 76.4%
Nc1ccc(/N=N/c2ccccc2)c(N)n1: 41.6%
CCOc1cc(N)c(Cl)cc1C(=O)NCC1CN(Cc2ccc(F)cc2)CCO1 (centres unmarked): 86.4%
CCN(CC)Cc1cc(Nc2ccnc3cc(Cl)ccc23)ccc1O: 17.1%
Cc1ccc(NC(=O)C2(c3ccc4c(c3)OC(F)(F)O4)CC2)nc1-c1cccc(C(=O)O)c1: 84.2%

Repeated from above (series 4):
COc1ccc(Cl)cc1C(=O)NCCc1ccc(S(=O)(=O)NC(=O)NC2CCCCC2)cc1: 88.6%
Cc1onc(-c2ccccc2)c1-c1ccc(S(N)(=O)=O)cc1: 76.4%
Nc1ccc(/N=N/c2ccccc2)c(N)n1: 41.6%
CCOc1cc(N)c(Cl)cc1C(=O)NCC1CN(Cc2ccc(F)cc2)CCO1 (centres unmarked): 86.4%
CCN(CC)Cc1cc(Nc2ccnc3cc(Cl)ccc23)ccc1O: 17.1%
